Measurements gathered from unrelated publications.
Lines come from different studies, so protocols differ. Numbers after ± are the reported error.
Organism: Plasmodium falciparum

SMILES | assay | test system | conditions | IC50
O=C1C(O)=C([C@H]2CC[C@H](c3ccc(Cl)cc3)CC2)C(=O)c2ccccc21 | parasite growth, [3H]hypoxanthine incorporation | 3D7 |  | 0.0007 µM
COC1=CC(c2ccc[nH]2)=N/C1=C\c1[nH]c(Cc2ccc(F)cc2)cc1Cc1ccc(F)cc1 | parasite growth | D6 | 72 h | < 0.0083 µM
COc1ccc(C2NC(C(=O)O)Cc3c2[nH]c2ccccc32)c(Cl)c1 (centres unmarked) | parasite growth | Dd2 |  | > 5 µM
COc1cc(/C=C/C(C)=O)ccc1OCc1cn(-c2ccnc3cc(Cl)ccc23)nn1 | parasite growth | D10 | blood stage | 0.8 µM
CN(C)C(=N)N=C(N)N | parasite growth | 3D7 | 48 h, blood stage | 1320 µM
C[C@H]1[C@@H](OCC(=O)CO)O[C@@H]2O[C@@]3(C)CC[C@H]4[C@H](C)CC[C@@H]1[C@@]24OO3 | parasite growth | W2 | 72 h, drug-resistant strain, blood stage | < 0.01 µM
CCCN1CCC(c2ccc(Nc3ccnc4cc(Cl)ccc34)cc2)CC1 | parasite growth, SYBR Green | D6 | 72 h, blood stage | 0.008 µM
O=C(O)C1Cc2c([nH]c3ccccc23)C(Cc2ccc(Cl)cc2Cl)N1 (centres unmarked) | parasite growth | Dd2 |  | > 10 µM
CCOC(=O)C1=C(C)NC2=C(C(=O)CC(c3ccc(OC)c(OC)c3)C2)C1c1ccccc1Cl (centres unmarked) | female gamete formation, item: Pfs25 | stage V gametocytes | 24 h, compound washed out before gametes | > 20 µM
CCN(CC)CCCC(C)Nc1ccnc2cc(Cl)ccc12 (centres unmarked) | parasite growth, SYBR Green | 3D7 | 72 h, blood stage | 0.0126 µM
CC(C)c1nc(CN(C)C(=O)N[C@H](C(=O)N[C@@H](Cc2ccccc2)C[C@H](O)[C@H](Cc2ccccc2)NC(=O)OCc2cncs2)C(C)C)cs1 | parasite growth, flow cytometry | 3D7, human O+ erythrocytes | 48 h | 3 µM
O=c1c2c([nH]c3cc(F)cc(F)c13)-c1ccccc1C2 | parasite growth | NF54 | blood stage | 0.0022 µM
CCN1CCOCC1c1ccc(Nc2c(-c3ccc(OC(F)(F)F)cc3)cnc3cc(Cl)ccc23)cc1 (centres unmarked) | parasite growth, SYBR Green | DD2 | 72 h, drug-resistant strain, blood stage | ≥ 0.25 µM
CCCOC(=O)C1=C(C)NC2=C(C(=O)CC(c3ccc(OC)c(OC)c3)C2)C1c1ccccc1F (centres unmarked) | male gamete formation | stage V gametocytes | 24 h, compound carried over | 0.0888 µM
CCN1CCN(c2ccc(Nc3ccnc4cc(C(F)(F)F)ccc34)cc2)CC1 | parasite growth, SYBR Green | DD2 | 72 h, drug-resistant strain, blood stage | 0.029 µM
Oc1ccc(CCNc2c3ccccc3nc3ccccc23)cc1O | parasite growth | erythrocytes | 48 h | 1.3 µM
C=C(C)C1CCC2(CO)CCC3(C)C(CCC4C5(C)CCC(O)C(C)(COC(=O)/C=C\c6ccc(O)cc6)C5CCC43C)C12 (centres unmarked) | parasite growth | Dd2 drug-resistant | 72 h | 0.63 ± 0.02 µM
C[C@H]1[C@H](OC(=O)CCC(=O)O)O[C@@H]2O[C@@]3(C)CC[C@H]4[C@H](C)CC[C@@H]1[C@@]24OO3 | parasite growth, [3H]hypoxanthine incorporation | NF54 | 72 h | 0.004 µM
COC(=O)C(CC(=O)c1ccc2ccccc2c1)OC (centres unmarked) | parasite growth, parasite lactate dehydrogenase | NF54 (chloroquine-sensitive) |  | 42 µM
O=C(CCCCCONC(=O)c1ccc(F)cc1)NO | parasite growth | HN12, NF54 | 72 h, gametocyte | 2 to 5.3 µM
COc1ccc(C(=O)/C=C/c2ccc(O)c(CN3CCN(c4ccnc5cc(Cl)ccc45)CC3)c2)c(OC)c1 | parasite growth | W2 | drug-resistant strain, blood stage | 0.3 to 0.6 µM
Cc1cc(C)cc(C(=O)NOCCCCCC(=O)NO)c1 | parasite growth | HN12, NF54 | 72 h, gametocyte | ≤ 1 µM

SMILES | assay | test system | conditions | IC50
COc1cc2nc(NCCc3ccccc3)nc(NCc3cc(C)no3)c2cc1OC | parasite growth | 3D7 | 72 h, asynchronous culture | 0.743 ± 0.162 µM
CCOC(=O)OC(C)Oc1c(-c2ccc(Oc3ccc(OC(F)(F)F)cc3)cc2)c(C)nc2cc(OC)c(Cl)cc12 (centres unmarked) | parasite growth, SYBR Green I | D6, drug-sensitive | 72 h | 0.33 µM
FC(F)(F)Oc1ccc(-c2cnc3cc(Cl)ccc3c2Nc2ccc(C3CN(Cc4ccccc4)CCO3)cc2)cc1 (centres unmarked) | parasite growth, SYBR Green | DD2 | 72 h, drug-resistant strain, blood stage | ≥ 0.25 µM
CCNC(=O)C1Cc2c([nH]c3ccccc23)C(c2ccc(Cl)cc2Cl)N1 (centres unmarked) | parasite growth | Dd2 |  | ~5 µM
CCOC(=O)C(=CNc1cccc2c(O)cccc12)C(=O)OCC | parasite growth, [3H]hypoxanthine incorporation | NF54 (chloroquine-sensitive) |  | 12 µM
O=C1C(O)=C([C@H]2CC[C@H](c3ccc(Cl)cc3)CC2)C(=O)c2ccccc21 | parasite growth | 3D7 |  | 0.0011 µM
CC(C)(C)c1ccc(O)c(CNC2CCCCC2)c1 | female gamete formation, item: Pfs25 | stage V gametocytes | 24 h, compound carried over | > 20 µM
C[C@H]1[C@@H](Oc2cccc(N[C@@H]3[C@H](C)O[C@@H]4O[C@@]5(C)CC[C@H]6[C@H](C)CC[C@@H]3[C@@]46OO5)c2)O[C@@H]2O[C@@]3(C)CC[C@H]4[C@H](C)CC[C@@H]1[C@@]24OO3 | parasite growth | W2 | 72 h, drug-resistant strain, blood stage | < 0.01 µM
CCN1CCN(c2ccc(Nc3ccnc4cc(Cl)c(Cl)cc34)cc2)CC1 | parasite growth, SYBR Green | D6 | 72 h, blood stage | 0.018 µM
C=CCN(CC(O)CO)c1ccccc1 (centres unmarked) | parasite growth, parasite lactate dehydrogenase | NF54 (chloroquine-sensitive) |  | > 482 µM
COc1cc(CO)c(-c2ccc3c(c2O)[C@@H](C)N[C@H](C)C3)c2cccc(O)c12 | parasite growth, SYBR Green | NF54 | 96 h, blood stage | 0.008 µM
COc1ccc(C(=O)/C=C/c2cc(CN3CCN(c4ccnc5cc(Cl)ccc45)CC3)c(O)c(OC)c2)c(OC)c1 | parasite growth | D10 | blood stage | 0.3 to 0.6 µM
CC(C)CN1CCC(c2ccc(Nc3ccnc4cc(Cl)ccc34)cc2)CC1 | parasite growth, SYBR Green | D6 | 72 h, blood stage | 0.007 µM
COc1ccc(C(=O)/C=C/c2ccc(OCc3cn(-c4ccnc5cc(Cl)ccc45)nn3)c(OC)c2)c(OC)c1 | parasite growth | D10 | blood stage | 0.04 µM
Oc1cccc(C(Nc2nccs2)c2ccc3cccnc3c2O)c1 (centres unmarked) | schizont development | INDO | 12 h, early to late schizont | < 5 µM
C[C@H]1[C@@H](OC[C@@H](O)[C@@H](O)CO[C@H]2O[C@@H]3O[C@@]4(C)CC[C@H]5[C@H](C)CC[C@@H]([C@H]2C)[C@@]35OO4)O[C@@H]2O[C@@]3(C)CC[C@H]4[C@H](C)CC[C@@H]1[C@@]24OO3 | parasite growth | W2 | 72 h, drug-resistant strain, blood stage | < 0.01 µM
COc1cc(C2NC(C(=O)O)Cc3c2[nH]c2ccccc32)c(Br)cc1F (centres unmarked) | parasite growth | Dd2 |  | > 10 µM
COc1ccc(C2CC(=O)C3=C(C2)NC(C)=C(C(=O)OC(C)C)C3c2ccccc2C)cc1OC (centres unmarked) | female gamete formation, item: Pfs25 | stage V gametocytes | 24 h, compound carried over | > 20 µM
Clc1ccc2c(Nc3ccc(N4CCN(C5CC5)CC4)cc3)ccnc2c1 | parasite growth, SYBR Green | D6 | 72 h, blood stage | 0.027 µM
CSCCC(NC(=O)OCc1ccccc1)C(=O)NCC(=O)O (centres unmarked) | parasite growth, parasite lactate dehydrogenase | NF54 (chloroquine-sensitive) |  | > 295 µM
CCN(CC)CCCC(C)Nc1ccnc2cc(Cl)ccc12 (centres unmarked) | parasite growth |  | 72 h | 0.108 µM
Clc1ccc2c(Nc3ccc(N4CCOCC4)cc3)ccnc2c1 | parasite growth, SYBR Green | D6 | 72 h, blood stage | ≥ 0.25 µM

Repeated from above:
SMILES | assay | test system | conditions | IC50
CCN1CCN(c2ccc(Nc3ccnc4cc(Cl)c(Cl)cc34)cc2)CC1 | parasite growth, SYBR Green | D6 | 72 h, blood stage | 0.018 µM
C=CCN(CC(O)CO)c1ccccc1 (centres unmarked) | parasite growth, parasite lactate dehydrogenase | NF54 (chloroquine-sensitive) |  | > 482 µM
COc1cc(CO)c(-c2ccc3c(c2O)[C@@H](C)N[C@H](C)C3)c2cccc(O)c12 | parasite growth, SYBR Green | NF54 | 96 h, blood stage | 0.008 µM
COc1ccc(C(=O)/C=C/c2cc(CN3CCN(c4ccnc5cc(Cl)ccc45)CC3)c(O)c(OC)c2)c(OC)c1 | parasite growth | D10 | blood stage | 0.3 to 0.6 µM
CC(C)CN1CCC(c2ccc(Nc3ccnc4cc(Cl)ccc34)cc2)CC1 | parasite growth, SYBR Green | D6 | 72 h, blood stage | 0.007 µM
COc1ccc(C(=O)/C=C/c2ccc(OCc3cn(-c4ccnc5cc(Cl)ccc45)nn3)c(OC)c2)c(OC)c1 | parasite growth | D10 | blood stage | 0.04 µM
Oc1cccc(C(Nc2nccs2)c2ccc3cccnc3c2O)c1 (centres unmarked) | schizont development | INDO | 12 h, early to late schizont | < 5 µM
